Published values collected from several papers.
A part holds a random share of what one study measured. ± gives the spread as reported. In brackets after ≈: the same amount, converted by molar mass.
Chain of UniProt O14920 (whole entry, looked up): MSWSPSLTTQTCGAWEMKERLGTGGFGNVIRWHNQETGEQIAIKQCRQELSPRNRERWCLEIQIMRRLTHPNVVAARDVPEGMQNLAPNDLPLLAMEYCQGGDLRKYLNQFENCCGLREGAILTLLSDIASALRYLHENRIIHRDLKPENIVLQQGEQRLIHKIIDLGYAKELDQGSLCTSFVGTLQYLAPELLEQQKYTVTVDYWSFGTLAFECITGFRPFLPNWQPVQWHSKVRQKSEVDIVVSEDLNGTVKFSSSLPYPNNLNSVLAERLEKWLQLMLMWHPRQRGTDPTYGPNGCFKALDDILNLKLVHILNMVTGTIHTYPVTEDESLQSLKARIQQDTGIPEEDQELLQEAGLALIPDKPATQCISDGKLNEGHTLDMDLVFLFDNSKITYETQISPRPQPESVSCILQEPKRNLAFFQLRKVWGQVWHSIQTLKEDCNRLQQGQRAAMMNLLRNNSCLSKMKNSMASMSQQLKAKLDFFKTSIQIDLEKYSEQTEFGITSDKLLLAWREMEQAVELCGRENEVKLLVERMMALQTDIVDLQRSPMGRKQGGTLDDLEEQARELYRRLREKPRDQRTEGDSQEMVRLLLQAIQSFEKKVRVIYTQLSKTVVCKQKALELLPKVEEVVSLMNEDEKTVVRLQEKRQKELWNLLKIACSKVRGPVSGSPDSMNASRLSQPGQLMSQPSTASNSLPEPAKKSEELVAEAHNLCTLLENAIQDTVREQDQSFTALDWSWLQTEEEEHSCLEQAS

Study 1
Organism: Bacillus pumilus
Technique: broth microdilution
Strain: MTCC 2296
`Cc1ccc(N=Nc2c(N)nn3c(-c4ccco4)cc(-c4ccc(OCc5ccccc5)cc4)nc23)cc1` has an MBC/MIC ratio of 8.
The MBC/MIC ratio of `COc1ccc(N=Nc2c(N)nn3c(-c4ccc(C)cc4)cc(-c4ccc(OCc5ccccc5)cc4)nc23)cc1` is reported as 4.
`Cc1ccc(-c2cc(-c3ccc(OCc4ccccc4)cc3)nc3c(N=Nc4ccc(F)cc4)c(N)nn23)cc1` gave an MBC/MIC ratio of 1.99.
`COc1ccc(N=Nc2c(N)nn3c(-c4ccc(Cl)cc4Cl)cc(-c4ccc(OCc5ccccc5)cc4)nc23)cc1` gave an MBC/MIC ratio of 8.
For `COc1ccc(N=Nc2c(N)nn3c(-c4ccco4)cc(-c4ccc(OCc5ccccc5)cc4)nc23)cc1`, the MBC/MIC ratio was 4.

Study 2
Target: mushroom tyrosinase
Observed: enzyme activity
Tested at: 40 µM
With: L-DOPA
The inhibition of `COc1ccc(NC(=O)Cn2cc(COc3ccc(-c4nc5ccccc5c(=O)n4Nc4ccc([N+](=O)[O-])cc4[N+](=O)[O-])cc3OC)nn2)cc1` is reported as 27.8 ± 2.45%.
For `COc1cc(-c2nc3ccccc3c(=O)n2Nc2ccc([N+](=O)[O-])cc2[N+](=O)[O-])ccc1OCc1cn(CC(=O)Nc2cccc(C)c2)nn1`, the inhibition was 68.6 ± 10.3%.
`COc1cc([N+](=O)[O-])ccc1NC(=O)Cn1cc(COc2ccc(-c3nc4ccccc4c(=O)n3Nc3ccc([N+](=O)[O-])cc3[N+](=O)[O-])cc2OC)nn1` has an inhibition of 33.5 ± 1.91%.

Study 3
Target: human lysosomal acid alpha-glucosidase
Mode: inhibitor
With: pNPG substrate
`COc1cc(/C=N/NC(=S)N/N=C\c2ccc(Cl)c(Cl)c2)ccc1Oc1ccnc2cc(Cl)ccc12` gave an IC50 of 8.5 ± 0.16 µg/mL (≈ 15.2 µM).
`COc1cc(/C=N/NC(=S)N/N=C/c2ccc(N(C)C)cc2)ccc1Oc1ccnc2cc(Cl)ccc12` has an IC50 of 12.7 ± 0.25 µg/mL (≈ 23.7 µM).
With `COc1cc(/C=N/NC(=S)N/N=C\c2ccc(CCl)cc2)ccc1Oc1ccnc2cc(Cl)ccc12` the IC50 was 11.13 ± 0.11 µg/mL (≈ 20.7 µM).
For `COc1cc(/C=N/NC(=S)NN=Cc2ccc(CO)o2)ccc1Oc1ccnc2cc(Cl)ccc12`, the IC50 was 13.7 ± 0.17 µg/mL (≈ 26.8 µM).

Single results of other studies
`O=C(Nc1cc(-c2ccc(Cl)cc2)[nH]n1)C1CCCCC1` gave a remaining activity of 100% (Inhibitor of nuclear factor kappa-B kinase subunit beta (IKBKB, Homo sapiens, UniProt O14920); enzyme activity, Dundee kinase panel; 10 µM).

For quick reference, copied from above (study 3):
`COc1cc(/C=N/NC(=S)N/N=C/c2ccc(N(C)C)cc2)ccc1Oc1ccnc2cc(Cl)ccc12` has an IC50 of 12.7 ± 0.25 µg/mL (≈ 23.7 µM).
With `COc1cc(/C=N/NC(=S)N/N=C\c2ccc(CCl)cc2)ccc1Oc1ccnc2cc(Cl)ccc12` the IC50 was 11.13 ± 0.11 µg/mL (≈ 20.7 µM).
